Published values of several laboratories.
Protocols differ between the studies behind these lines. Several values in a cell are separate wells, animals, samples, runs or records. ± marks the error that the study gave.

COc1ccc(C(=O)CCc2cc(C(CCc3ccc(O)cc3OC)c3ccc(O)cc3)c(O)cc2OC)cc1 (racemic) — arachidonic acid level (human blood; 10 µM, with: A23187): 102000 ± 15400 pg/mL
CC(C)C[C@H](NC(=O)CNC(=O)[C@H](CCC(N)=O)NC(=O)[C@H](CC(C)C)NC(=O)[C@H](CC(C)C)NC(=O)[C@H](CCCNC(=N)N)NC(=O)[C@H](CCC(N)=O)NC(=O)[C@H](CC(C)C)NC(=O)[C@H](CCCNC(=N)N)NC(=O)[C@H](C)NC(=O)CNC(=O)[C@H](CCC(=O)O)NC(=O)[C@H](CCCNC(=N)N)NC(=O)[C@H](CC(C)C)NC(=O)[C@H](CCCNC(=N)N)NC(=O)[C@H](CO)NC(=O)[C@H](CC(C)C)NC(=O)[C@H](CCC(=O)O)NC(=O)[C@H](CO)NC(=O)[C@@H](NC(=O)[C@H](Cc1ccccc1)NC(=O)[C@@H](NC(=O)CNC(=O)[C@H](CC(=O)O)NC(=O)C(C)(C)NC(=O)[C@@H](N)Cc1c[nH]cn1)[C@@H](C)O)[C@@H](C)O)C(=O)N[C@@H](CC(C)C)C(=O)N[C@@H](CCC(N)=O)C(=O)NCC(=O)N[C@@H](CC(C)C)C(=O)N[C@H](C(=O)NCC(=O)N[C@@H](CCCCNC(=O)COCCOCCNC(=O)COCCOCCNC(=O)CC[C@H](NC(=O)CCCCCCCCCCCCCCCCC(=O)O)C(=O)O)C(N)=O)C(C)C — lean mass (DIO C57BL/6J mice; sc, 300 nmol/kg twice daily, day 8): no effect
COc1cnc2cccc(N3CCc4c(cc(Cn5ccnc5)cc4-c4cn(C)nc4C(F)(F)F)C3=O)c2c1 — tumour volume (BALB/c nude mice, MV4-11 xenograft; intraperitoneal, 100 mg/kg, day 21): 160 mm3 and 98 mm3 and 89 mm3 and 125 mm3 and 105 mm3
CC(=O)[O-].O.O.O.O.[Mn+2].[O-]c1ccc(Br)cc1C=NCCN1CCOCC1 — inhibition (DPPH radical scavenging; 80 µM): 20.9%
Oc1cc2c(cc1O)C(c1ccco1)NCC2 (centres unmarked) — Fe2+ chelation (ferrozine; cell-free; 100 µM, DMSO solvent): 93.8 ± 1.07%
COC1CN([C@H]2CC[C@H]([C@@]3(C)Oc4c(Cl)cc(C(=O)NCc5c(SC)cc(C)[nH]c5=O)c(C)c4O3)CC2)C1 — log2 fold change (RNA-seq, measured: BCL9; human, whole blood; dose not given, 24 h; reference: pretreatment baseline): 1.04
COC1OC(C)C(OS(=O)(=O)O)C(OC2OC(C)C(OS(=O)(=O)O)C(OC3OC(C)C(OS(=O)(=O)O)C(OS(=O)(=O)O)C3OS(=O)(=O)O)C2OS(=O)(=O)O)C1OS(=O)(=O)O (centres unmarked) — APTT prolongation (human plasma; 128 µg/mL; reference: control): 1.7 fold
CCOC(=O)c1c(NC(=O)Cn2cnc([N+](=O)[O-])n2)sc2c1CCCC2 — translation activity (Trypanosoma cruzi; reporter mRNA translation, inhibitor, measured: capped polyadenylated Renilla luciferase mRNA; cell-free extract; concentration not given; reference: positive over negative control): 107% and 97.4% and 102% and 90.3%
CN1CCC[C@]1(C)/C=C/S(=O)(=O)NC(=O)Nc1c2c(cc3c1CCC3)CCC2 — IL-1β inhibition (human, whole blood ex vivo; 12.5 mg twice daily, day 14, 3 h, multiple ascending dose, with: LPS and ATP): 97.3%
COC1OC(C)C(OC2OC(C)C(OS(=O)(=O)O)C(OC3OC(C)C(OC4OC(C)C(OS(=O)(=O)O)C(OC5OC(C)C(OC6OC(C)C(OS(=O)(=O)O)C(OC7OC(C)C(OC8OC(C)C(OS(=O)(=O)O)C(OC9OC(C)C(OC%10OC(C)C(OS(=O)(=O)O)C(OS(=O)(=O)O)C%10O)C(OS(=O)(=O)O)C9O)C8O)C(OS(=O)(=O)O)C7O)C6O)C(OS(=O)(=O)O)C5O)C4O)C(OS(=O)(=O)O)C3O)C2O)C(OS(=O)(=O)O)C1O (centres unmarked) — APTT prolongation (human plasma; 128 µg/mL; reference: control): 1.3 fold
CCC(=O)N(CC#N)S(=O)(=O)c1ccc(C)cc1 — pseudo-first-order rate constant (HPLC-MS; pH 10.2, with: 50 mM N-α-acetyl-lysine): 50 h⁻¹
COc1ccc2c(c1)CN(C(=O)CCN1CCC(Cc3ccccc3)CC1)CC[S+]2[O-] (centres unmarked) — AF conversion rate (patients with paroxysmal atrial fibrillation; unbound concentration 0.3 to 0.8 µM): 60%
Nc1nc2nn[nH]c2c(=O)[nH]1 — translation activity (Trypanosoma cruzi; reporter mRNA translation, inhibitor, measured: Renilla luciferase mRNA; cell-free extract; concentration not given, test 2; reference: positive over negative control): 101%
Cc1cc2cc(C(=O)N(Cc3ccc(C(F)(F)F)cn3)[C@H](C)c3ncccn3)ccc2nc1N — inhibition (ELISA, measured: SDMA; mouse, HCT-116 MTAP-deleted xenograft, tumour; oral, 100 mg/kg once daily, 11 doses, 4 h after last dose; reference: vehicle): 89%
